Measured values pooled from the literature.
Each line is one published result; not all experiments were run side by side.
Cell line: TMD8
Read-out: cell growth or viability

Fc1cncc(-c2ccc3[nH]c4ncnc(N[C@H]5CC[C@H](N6CCOCC6)CC5)c4c3c2)c1  GI50 (WST-1; 72 h): 1800 nM
O=C(NCC1(c2nc(-c3ccccc3)cs2)CCOCC1)c1cccc(-c2noc(C(F)(F)F)n2)c1  IC50 (CCK-8; 7 days): > 20000 nM
CCC1C(COc2nccc3cc(C(N)=O)c(OC)cc23)NC(=O)C1F (stereo not drawn)  GI50 (WST-1; 72 h): > 10000 nM
C=CC(=O)N1CCC[C@@H](n2nc(-c3ccc(Oc4ccccc4)cc3)c3c(N)ncnc32)C1  IC50 (ATP luminescence; 96 h): 1.5 nM
CC#CC(=O)N1CCC[C@H]1c1nc(-c2ccc(C(=O)Nc3ccccn3)cc2)c2c(N)nccn12  IC50 (ATP luminescence; 72 h): 4.9 nM
CC#CC(=O)N1CCC[C@H]1c1nc(-c2ccc(C(=O)Nc3ccccn3)cc2)c2c(N)nccn12  IC50 (ATP luminescence; 96 h): 7.5 nM
O=C1CCC(N2C(=O)c3ccc(N4CCC(C(=O)N5CCC(CCN6CCC(CNC(=O)c7cccc(-c8noc(C(F)(F)F)n8)c7)(c7nc(-c8ccccc8)cs7)CC6)CC5)CC4)cc3C2=O)C(=O)N1 (stereo not drawn)  IC50 (CCK-8; 7 days): 1880 nM
C=CC(=O)N1CCCC(n2c(=O)c3ncccc3n(Cc3ccc(Oc4ccccc4)cc3)c2=O)C1 (stereo not drawn)  IC50 (MTT; 72 h): 500 nM
C=CC(=O)N1CCC([C@@H]2CCNc3c(C(N)=O)c(-c4ccc(Oc5ccccc5)cc4)nn32)CC1  IC50 (ATP luminescence; 72 h): 0.6 nM

Some of these lines once more:
CC#CC(=O)N1CCC[C@H]1c1nc(-c2ccc(C(=O)Nc3ccccn3)cc2)c2c(N)nccn12  IC50 (ATP luminescence; 72 h): 4.9 nM
